# Measured values of several laboratories.
# Lines come from different studies, so protocols differ. ± gives the spread as reported.
# Cell line: MOLT-4
SMILES,read-out,technique,time,notes,measurement,value
COc1c(CCC[P+](c2ccccc2)(c2ccccc2)c2ccccc2)cc2c(c1OC)OCO2.[I-],,SRB,,,GI50,-5.51 log M
CCN(CC)c1ccc(C=NNC(=O)CSc2nc3ccccc3c(=O)n2Cc2ccc(S(N)(=O)=O)cc2)c(O)c1,,NCI five-dose screen,,,CC50,> 100000 nM
Cn1cncc1C1=CN(c2ncnc3[nH]cnc23)CCS1,,,,leukemia,CC50,> 200000 nM
CC(C)N1CCC(NC2CCN(c3cccc(-c4cc5cc(F)ccc5[nH]4)c3)CC2)CC1,,,,,GI50,1540 nM
Nc1ncc(-c2nc(N3CCOCC3)nc(N3CCOCC3)n2)c(C(F)F)n1,,,72 h,,GI50,83 nM
COc1cc(C(=O)c2cc3c(-c4ccccc4)c(OC)ccc3o2)cc(OC)c1OC,cell proliferation,,72 h,,IC50,> 50000 nM
CN1CCN(C2(CNC3CCN(c4cccc(-c5cc6cc(F)ccc6[nH]5)c4)CC3)CCC2)CC1,,,,,GI50,1610 nM
COc1cc(CCC[P+](c2ccccc2)(c2ccccc2)c2ccccc2)c(OC)c2c1OCO2.[I-],,SRB,,,GI50,-5.48 log M
O=C(c1ccccc1)c1cc2c(-c3ccccc3)c(O)ccc2o1,cell proliferation,,72 h,,IC50,38000 ± 4000 nM
